Results collected from several papers.
Each numbered part is a random draw from the data of one study; scales do not carry over between parts. Values joined by “and” are separate records of one study, mostly repeats; a detail may differ.
Chain of UniProt Q15831 (whole entry, looked up): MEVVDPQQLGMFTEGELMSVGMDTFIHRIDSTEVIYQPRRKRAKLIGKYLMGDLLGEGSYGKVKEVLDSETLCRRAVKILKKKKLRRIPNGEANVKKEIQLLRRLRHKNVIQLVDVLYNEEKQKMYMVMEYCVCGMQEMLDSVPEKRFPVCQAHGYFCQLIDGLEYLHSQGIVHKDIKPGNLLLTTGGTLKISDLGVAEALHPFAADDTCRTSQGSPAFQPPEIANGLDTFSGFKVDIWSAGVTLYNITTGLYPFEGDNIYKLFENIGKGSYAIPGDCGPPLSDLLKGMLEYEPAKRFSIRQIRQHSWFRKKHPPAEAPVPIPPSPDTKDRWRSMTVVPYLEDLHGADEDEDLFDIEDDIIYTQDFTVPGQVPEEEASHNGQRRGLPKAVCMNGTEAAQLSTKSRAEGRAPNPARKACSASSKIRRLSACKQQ
Chain of UniProt P11802 (whole entry, looked up): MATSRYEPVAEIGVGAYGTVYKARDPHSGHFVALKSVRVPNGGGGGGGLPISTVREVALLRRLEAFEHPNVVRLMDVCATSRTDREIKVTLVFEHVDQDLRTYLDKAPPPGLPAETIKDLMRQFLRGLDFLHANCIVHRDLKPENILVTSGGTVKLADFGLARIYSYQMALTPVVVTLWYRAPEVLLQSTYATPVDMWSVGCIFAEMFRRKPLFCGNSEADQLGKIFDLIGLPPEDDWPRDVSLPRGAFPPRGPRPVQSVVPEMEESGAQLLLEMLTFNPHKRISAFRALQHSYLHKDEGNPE
Chain of UniProt Q96RR4 (whole entry, looked up): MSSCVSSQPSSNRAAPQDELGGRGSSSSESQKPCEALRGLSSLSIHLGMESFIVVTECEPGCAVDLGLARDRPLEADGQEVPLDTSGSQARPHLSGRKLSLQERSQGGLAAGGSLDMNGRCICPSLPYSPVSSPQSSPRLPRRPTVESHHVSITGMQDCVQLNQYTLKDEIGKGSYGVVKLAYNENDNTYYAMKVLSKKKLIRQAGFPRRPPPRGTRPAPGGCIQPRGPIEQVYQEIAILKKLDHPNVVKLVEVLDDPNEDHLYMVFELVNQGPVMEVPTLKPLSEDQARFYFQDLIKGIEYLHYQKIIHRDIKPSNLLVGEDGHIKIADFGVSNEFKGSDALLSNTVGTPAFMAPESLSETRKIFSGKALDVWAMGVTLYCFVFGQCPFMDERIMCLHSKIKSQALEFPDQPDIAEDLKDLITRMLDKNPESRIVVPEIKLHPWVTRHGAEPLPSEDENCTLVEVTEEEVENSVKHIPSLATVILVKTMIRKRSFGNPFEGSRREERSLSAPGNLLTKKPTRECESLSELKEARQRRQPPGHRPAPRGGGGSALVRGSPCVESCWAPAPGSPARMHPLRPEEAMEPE
Chain of UniProt O96017 (whole entry, looked up): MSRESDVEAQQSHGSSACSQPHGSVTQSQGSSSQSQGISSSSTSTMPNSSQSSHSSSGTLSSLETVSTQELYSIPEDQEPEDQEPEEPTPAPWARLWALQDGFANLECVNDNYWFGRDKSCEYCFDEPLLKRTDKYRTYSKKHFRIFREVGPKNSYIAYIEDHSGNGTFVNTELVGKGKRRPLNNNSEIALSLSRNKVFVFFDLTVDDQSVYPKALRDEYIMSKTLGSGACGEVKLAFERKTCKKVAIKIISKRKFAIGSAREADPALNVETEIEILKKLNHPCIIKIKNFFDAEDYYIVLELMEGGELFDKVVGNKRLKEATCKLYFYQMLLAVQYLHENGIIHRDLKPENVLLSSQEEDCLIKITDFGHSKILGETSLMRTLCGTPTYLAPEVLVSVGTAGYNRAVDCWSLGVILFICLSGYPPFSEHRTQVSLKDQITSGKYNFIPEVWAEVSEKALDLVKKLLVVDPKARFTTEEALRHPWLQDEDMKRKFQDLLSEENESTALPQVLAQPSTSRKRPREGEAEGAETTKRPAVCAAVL
Chain of UniProt Q13557 (whole entry, looked up): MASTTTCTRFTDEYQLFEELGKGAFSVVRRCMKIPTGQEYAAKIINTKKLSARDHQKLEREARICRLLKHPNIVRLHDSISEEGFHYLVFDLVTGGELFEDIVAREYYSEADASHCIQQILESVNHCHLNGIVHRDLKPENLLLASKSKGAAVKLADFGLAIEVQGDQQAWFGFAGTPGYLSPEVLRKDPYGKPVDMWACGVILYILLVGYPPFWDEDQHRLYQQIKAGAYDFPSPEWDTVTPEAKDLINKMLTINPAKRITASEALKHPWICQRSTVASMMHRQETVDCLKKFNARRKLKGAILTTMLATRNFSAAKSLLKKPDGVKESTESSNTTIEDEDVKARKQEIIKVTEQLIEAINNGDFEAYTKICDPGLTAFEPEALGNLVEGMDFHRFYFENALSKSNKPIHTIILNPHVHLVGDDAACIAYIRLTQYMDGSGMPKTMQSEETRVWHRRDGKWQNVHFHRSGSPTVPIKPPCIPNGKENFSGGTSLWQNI
Chain of UniProt P53355 (whole entry, looked up): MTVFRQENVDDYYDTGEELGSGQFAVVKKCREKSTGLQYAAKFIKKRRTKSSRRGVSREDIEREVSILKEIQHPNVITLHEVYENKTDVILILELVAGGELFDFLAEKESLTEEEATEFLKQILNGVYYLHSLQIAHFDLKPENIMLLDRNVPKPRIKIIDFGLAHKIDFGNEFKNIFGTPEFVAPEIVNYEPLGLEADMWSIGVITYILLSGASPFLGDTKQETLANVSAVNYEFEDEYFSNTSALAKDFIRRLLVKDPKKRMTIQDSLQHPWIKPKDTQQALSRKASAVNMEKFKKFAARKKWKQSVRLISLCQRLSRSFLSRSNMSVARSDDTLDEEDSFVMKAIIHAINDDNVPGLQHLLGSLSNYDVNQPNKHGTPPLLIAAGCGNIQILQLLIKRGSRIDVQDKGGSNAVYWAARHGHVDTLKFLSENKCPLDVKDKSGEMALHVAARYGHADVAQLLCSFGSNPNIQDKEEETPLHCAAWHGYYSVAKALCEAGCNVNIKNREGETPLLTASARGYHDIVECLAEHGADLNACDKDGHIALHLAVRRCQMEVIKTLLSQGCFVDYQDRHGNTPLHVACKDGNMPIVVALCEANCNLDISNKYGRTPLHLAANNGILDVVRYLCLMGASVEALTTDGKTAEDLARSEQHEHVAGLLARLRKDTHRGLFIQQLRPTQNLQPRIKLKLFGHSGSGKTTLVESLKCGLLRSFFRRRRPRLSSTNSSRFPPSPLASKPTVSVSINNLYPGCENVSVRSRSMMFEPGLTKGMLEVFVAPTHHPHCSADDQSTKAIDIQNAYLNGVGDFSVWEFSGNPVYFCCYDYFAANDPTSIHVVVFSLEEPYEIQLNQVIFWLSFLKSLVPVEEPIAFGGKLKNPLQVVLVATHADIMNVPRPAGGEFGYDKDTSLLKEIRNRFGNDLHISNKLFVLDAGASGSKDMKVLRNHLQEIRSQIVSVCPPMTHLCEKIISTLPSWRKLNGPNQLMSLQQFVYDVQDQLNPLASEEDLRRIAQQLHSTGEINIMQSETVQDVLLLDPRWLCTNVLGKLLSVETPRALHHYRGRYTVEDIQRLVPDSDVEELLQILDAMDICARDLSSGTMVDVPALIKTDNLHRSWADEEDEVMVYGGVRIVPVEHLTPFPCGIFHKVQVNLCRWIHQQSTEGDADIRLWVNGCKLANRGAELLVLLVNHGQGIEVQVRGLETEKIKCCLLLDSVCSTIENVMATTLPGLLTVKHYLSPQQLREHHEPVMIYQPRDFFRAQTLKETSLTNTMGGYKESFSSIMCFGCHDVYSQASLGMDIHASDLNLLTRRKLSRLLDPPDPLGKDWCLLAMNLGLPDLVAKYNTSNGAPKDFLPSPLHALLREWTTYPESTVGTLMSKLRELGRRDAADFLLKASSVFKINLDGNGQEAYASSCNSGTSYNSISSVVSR
Chain of UniProt Q14164 (whole entry, looked up): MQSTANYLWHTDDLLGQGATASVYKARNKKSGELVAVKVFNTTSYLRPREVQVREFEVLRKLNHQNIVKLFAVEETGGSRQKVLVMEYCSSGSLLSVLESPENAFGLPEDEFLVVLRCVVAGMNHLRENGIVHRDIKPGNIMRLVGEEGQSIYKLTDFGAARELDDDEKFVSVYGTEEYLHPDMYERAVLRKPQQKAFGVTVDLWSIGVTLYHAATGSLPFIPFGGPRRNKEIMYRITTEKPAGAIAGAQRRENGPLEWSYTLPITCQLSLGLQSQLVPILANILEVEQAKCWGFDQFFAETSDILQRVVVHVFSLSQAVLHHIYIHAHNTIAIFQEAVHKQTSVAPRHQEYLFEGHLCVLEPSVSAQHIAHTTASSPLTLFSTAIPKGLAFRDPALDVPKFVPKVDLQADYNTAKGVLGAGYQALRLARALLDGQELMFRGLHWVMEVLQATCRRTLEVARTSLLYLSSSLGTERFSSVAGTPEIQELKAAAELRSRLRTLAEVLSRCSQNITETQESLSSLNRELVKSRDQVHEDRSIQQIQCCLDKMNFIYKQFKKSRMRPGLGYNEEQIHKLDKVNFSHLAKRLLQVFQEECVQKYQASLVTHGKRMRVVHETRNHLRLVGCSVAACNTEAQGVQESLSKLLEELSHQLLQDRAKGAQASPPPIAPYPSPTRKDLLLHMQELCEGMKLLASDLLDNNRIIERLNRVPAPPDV
Chain of UniProt P07948 (whole entry, looked up): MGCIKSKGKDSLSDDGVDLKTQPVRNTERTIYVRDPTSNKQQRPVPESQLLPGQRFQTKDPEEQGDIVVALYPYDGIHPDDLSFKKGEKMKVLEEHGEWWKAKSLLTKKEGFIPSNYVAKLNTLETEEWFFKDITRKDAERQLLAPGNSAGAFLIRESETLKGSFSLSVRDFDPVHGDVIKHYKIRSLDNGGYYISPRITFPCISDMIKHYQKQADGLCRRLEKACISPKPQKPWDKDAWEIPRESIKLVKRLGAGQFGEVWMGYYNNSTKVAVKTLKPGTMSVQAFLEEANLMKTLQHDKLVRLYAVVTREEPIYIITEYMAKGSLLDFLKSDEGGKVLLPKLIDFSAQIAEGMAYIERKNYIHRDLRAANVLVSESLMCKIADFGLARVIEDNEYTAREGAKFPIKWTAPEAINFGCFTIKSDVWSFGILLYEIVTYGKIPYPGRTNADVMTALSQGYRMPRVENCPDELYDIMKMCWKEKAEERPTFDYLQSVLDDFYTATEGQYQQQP

Sample 1
Target: Sal-like protein 4, full length isoform B (SALL4, Homo sapiens, UniProt Q9UJQ4-2, residues 1-616)
Method: universal PBM
Form: double-stranded DNA, one strand shown
Matrix: in vitro
Concentration: not given
Notes: 8-mer, flanks averaged, mean of replicates
Reading: higher = stronger binding
| Sequence | E-score |
| --- | --- |
| AACACTCT | 0.085 |
| AGTGGTAA | 0.109 |
| ACTCTATC | 0.0204 |
| AGTTCAGC | -0.196 |
| CATAATGC | 0.279 |
| TTCAACAA | 0.212 |
| CAATAGAA | 0.162 |
| CCTCCAAA | -0.102 |

Sample 2
Structure (SMILES): O=C1NC(=O)c2c1c1c3ccccc3[nH]c1c1[nH]c3cc(Br)ccc3c21
Observed: enzyme activity
Action: inhibitor
Concentration: 0.5 µM
Reference: control
| target | remaining activity |
| --- | --- |
| Protein kinase C beta type, isoform beta-I (PRKCB, Homo sapiens, UniProt P05771) | 78.6% |
| STK10 (Homo sapiens, UniProt O94804) | 84.6% |
| cGMP-dependent protein kinase 1, isoform beta (PRKG1, Homo sapiens, UniProt Q13976) | 90.7% |
| STK39 (Homo sapiens, UniProt Q9UEW8) | 90.7% |
| Tyrosine-protein kinase Lyn, isoform B (LYN, Homo sapiens, UniProt P07948) | 92.1% |
| STK11 (Homo sapiens, UniProt Q15831) | 90.2% |
| DAPK2 (Homo sapiens, UniProt Q9UIK4) | 98.4% |
| GRK3 (Homo sapiens, UniProt P35626) | 95.2% |
| CAMK2D (Homo sapiens, UniProt Q13557) | 63.1% |
| NEK2 (Homo sapiens, UniProt P51955) | 92% |
| Cyclin-dependent kinase 4, with cyclin D1 (CDK4, Homo sapiens, UniProt P11802) | 84.9% |
| DAPK1 (Homo sapiens, UniProt P53355) | 73.5% |
| Cyclin-dependent kinase 5, with p25 (CDK5, Homo sapiens, UniProt Q00535) | 43.4% |
| CAMKK2 (Homo sapiens, UniProt Q96RR4) | 48.1% |
| TGFBR1 (Homo sapiens, UniProt P36897) | 96.9% |
| PRKCA (Homo sapiens, UniProt P17252) | 72.5% |
| MAP3K3 (Homo sapiens, UniProt Q99759) | 105% |
| PRKACA (Homo sapiens, UniProt P17612) | 103% |
| IKBKE (Homo sapiens, UniProt Q14164) | 83.4% |
| OXSR1 (Homo sapiens, UniProt O95747) | 95.8% |
| TGFBR2 (Homo sapiens, UniProt P37173) | 61.8% |
| CHEK2 (Homo sapiens, UniProt O96017) | 37.5% |
| IKBKB (Homo sapiens, UniProt O14920) | 92.2% |
| MAPK9 (Homo sapiens, UniProt P45984) | 99.6% |

Sample 3
Cell line: sample B colorectal tumour organoid
Concentration: 1 µM
Reference: DMSO
| Compound | viability |
| --- | --- |
| Cl.Cl.NC1(c2ccc(-c3nc4ccn5c(=O)[nH]nc5c4cc3-c3ccccc3)cc2)CCC1 | 64.2% |
| O=C(O)c1ccc(-c2coc3ncc(-c4ccccc4)cc23)cc1Cl | 113% |
| CCCCNc1ncc(-c2ccc(CN3CCOCC3)cn2)c(NC2CCC(O)CC2)n1 (centres unmarked) | 107% |
| CC(=O)NCC(=O)N1[C@@H]2CC[C@H]1c1ccc(Nc3ncc(C(F)(F)F)c(NC4CCC4)n3)cc12 | 36.1% and 33.7% |
| CN1CCN(Cc2cc(NC(=O)c3ccc4c(c3)CN(c3ccccc3)CC4)cc(C(F)(F)F)c2)CC1 | 95.6% and 86.7% |
| CCOc1cn(-c2ccc(F)cc2C)nc1C(=O)Nc1ccc(Oc2ccnc3cc(OC)c(OC)cc23)c(F)c1 | 104% and 103% |
| CC(C)C(=O)Nc1n[nH]c2cc(-c3cccc(NS(=O)(=O)C4CC4)c3)ccc12 | 106% |
| CCN(CC)S(=O)(=O)Nc1cccc(-c2ccc3c(NC(=O)C4CC4)n[nH]c3c2)c1 | 102% |
| O=C(Nc1cccnn1)N1CC(CC=Cc2cncc(Oc3ccc(C(F)(F)F)cn3)n2)C1 | 121% |
| CCNC(=O)c1cc2c(N3CCOC[C@H]3C)ccnc2n1C | 129% and 100% |

Sample 4
Target: Prothrombin, mature alpha-thrombin (F2, Homo sapiens, UniProt P00734)
Method: aptamer microarray, sandwich
Form: DNA with 2'F-ANA
Matrix: in vitro
Concentration: 200 nM
Notes: whole 15-mer aptamer, many near background
Together with: Cy3 exosite-II aptamer, 400 nM
Reading: higher = stronger binding
Sequence: GGTTGGTGTGGTTGG
| Modification | mean fluorescence intensity [a.u.] |
| --- | --- |
| 2'F-ANA at 5 9 14 15 | 64.4 |
| 2'F-ANA at 2 3 6 9 10 | 346 |
| 2'F-ANA at 1 2 6 7 9 10 13 14 | 48.1 |
| 2'F-ANA at 4 5 6 8 9 13 15 | 72.8 |
| 2'F-ANA at 1 2 3 5 7 8 12 13 14 15 | 59.7 |
| 2'F-ANA at 3 5 7 8 9 13 14 15 | 55.5 |
| 2'F-ANA at 3 6 9 12 14 15 | 607 |
| 2'F-ANA at 1 2 3 4 6 7 9 11 13 | 90.7 |
